Published values gathered from unrelated publications.
Compare with care: the assays were run in different laboratories. Numbers after ± are the reported error.

Compound | assay | system | conditions | scale | endpoint | result
O=C(CCc1ccc(CNC(C(=O)OC2CCCC2)C2CCCCC2)cn1)NO (stereo not shown) |  | human, plasma | oral, 20 mg, single dose, geometric mean |  | half-life | 0.343 h
NC[C@@H](C(=O)Nc1ccc(-c2cn[nH]c2)cc1)c1ccccc1 | OECD 405 eye irritation | New Zealand White rabbit, eye | topical, 0.1%, 56 h (day 3), scale 0 to 4 | direction not given | chemosis score | 0
O=C(NCCCN(CCCCN(CCCNC(=O)c1cccc(=O)n1[O-])C(=O)c1cccc(=O)n1[O-])C(=O)c1cccc(=O)n1[O-])c1cccc(=O)n1[O-].[89Zr+4] |  | mouse, kidney | 10 min |  | tracer uptake | 9.46 %ID/g
N=C(N)NCCC[C@@H]1NC(=O)[C@H](Cc2c[nH]c3ccccc23)NC(=O)[C@@H](CC2CCCCC2)NC(=O)[C@@H]2CCCN2C(=O)[C@@H](NC(=O)CCc2ccccc2)CCCNC1=O |  | C57BL/6J mice, urine | intravenous, 1 mg/kg, 4 h |  | amount excreted unchanged | 20.7 ± 3.8 ng
CCc1c2c(nc3ccc(O)cc13)-c1cc3c(c(=O)n1C2)COC(=O)[C@]3(O)CC |  | human patients, plasma | intravenous, 3 mg/m^2 of parent drug |  | AUC(0-inf) | 24 ng·h/mL
Cc1ccc(-c2ccc(-c3cc4sccc4o3)cn2)nc1 | TCSPC | hexanes |  |  | fluorescence lifetime | 0.85 ns
COc1cc([O-])c(C=NCCCN(C)CCN(C)CCCN=Cc2c([O-])cc(OC)cc2OC)c(OC)c1.[67Ga+3] |  | rat | intravenous, 2 h | relative to: heart over lung | tissue uptake ratio | 1.58 ± 0.08
COCCOCCOCCOCCOCCOCCOCCOCCC(=O)NCCCc1cc2cc3nc(cc4[nH]c(cc5nc(c(OC)c1[nH]2)C(=O)C5(C)C)cc4CCc1ccc(C(=O)O)cc1)CC3(C)C |  | DMF | room temperature |  | kic^−1 | 10 ns
CCCC[C@@H]1NC(=O)[C@@H](NC(=O)[C@H](CCC(=O)O)NC(=O)CNC(=O)CN2CCN(CC(=O)O)CCN(CC(=O)O)CCN(CC(=O)O)CC2)CCCCNC(=O)C[C@@H](C(N)=O)NC(=O)[C@H](C(C)C)NC(=O)[C@@H]2CCCN2C(=O)[C@H](CCCNC(=N)N)NC(=O)CNC(=O)[C@H](Cc2c[nH]c3ccccc23)NC(=O)[C@H](CCCNC(=N)N)NC(=O)[C@@H](Cc2ccccc2)NC(=O)[C@H](Cc2c[nH]cn2)NC(=O)[C@H](CCC(=O)O)NC1=O [gallium-67 labelled] |  | C57 mice with B16/F1 melanoma | intravenous, 0.037 MBq/mouse, 2 h | relative to: tumour over liver | tumour to liver ratio | 56.2
C=CC(=O)Nc1cc(Nc2nccc(-c3cn(C4CC4)c4ccccc34)n2)c(OC)cc1NC | radio-HPLC | human male, feces | oral, 110 mg, 0 to 48 h, sample holds 45.32% dose | relative to: dose | excreted amount | 0.34%
COC(=O)C(c1ccccc1Cl)N1CCC(SCC(=O)c2cccc(OC)c2)C(=CC(=O)O)C1 (mixture of isomers) |  | feline EDTA plasma | room temperature |  | storage stability time | ≥ 1 weeks
Cn1c(=O)oc2ccc(-c3ccc(CC(C#N)NC(=O)C4CNCCCO4)c(F)c3)cc21 (stereo not shown) |  | human, plasma | 60 mg, single dose, fasted, mean |  | half-life | 18.3 h
CN1CCC[C@]1(C)/C=C/S(=O)(=O)NC(=O)Nc1c2c(cc3c1CCC3)CCC2 |  | human, plasma | oral, 12.5 mg twice daily, day 14, multiple ascending dose |  | Tmax after first dose, median | 0.8 h
N#Cc1cnc2cc(OCC3CCNCC3)c(F)cc2c1Nc1cc(F)c(OCc2cccc(Cl)n2)cc1Cl |  | male beagle dog, plasma | oral, 5 mg/kg |  | MRT | 8.41 h
CC(C)(O)c1ncc([S@](N)(=O)=NC(=O)Nc2c3c(cc4c2CCC4)CCC3)s1 |  | healthy human | oral, 100 mg once daily, day 14, spray-dried dispersion, geometric mean |  | Cmax | 12700 ng/mL
C[Si]1(C[C@@H](CN)CC(=O)O)CCCC1 |  | Sprague-Dawley rat, male, brain | oral, 30 mg/kg, estimated as Cmax x Kp |  | brain Cmax | 2.8 µM
O=C(O)C1CN(Cc2ccc(-c3noc(-c4ccc(OCC[18F])c(C(F)(F)F)c4)n3)cc2)C1 |  | male Sprague-Dawley rat, brain | intravenous, 30 min |  | tissue uptake | 0.018 ± 0.002 %ID/g

Compound | assay | system | conditions | scale | endpoint | result
CC(C)C[C@@H](NC(=O)[C@H](NC(=O)[C@H]1CCCN1)[C@H](C)O)C(=O)N[C@H](Cc1c[nH]cn1)C(=O)N[C@@H](C(=O)N[C@H](Cc1c[nH]cn1)C(=O)N[C@H](CC(N)=O)C(=O)N[C@H](CCCNC(=N)N)C(=O)N[C@H](CCCNC(=N)N)C(=O)N[C@H](CCCNC(=N)N)C(=O)N[C@H](CCCNC(=N)N)C(=O)N[C@H](CCCNC(=N)N)C(N)=O)[C@H](C)O |  | beagle dog, plasma | oral, 50 mg/kg, single dose |  | MRT | 35 h
Cc1cc(O)cc(O)c1C(=O)c1c2c3c(c(O)cc(C)c3oc1=O)C(=O)c1c(O)cc(O)cc1-2 |  | Caco-2 | 50 µM, 3 h, pH 7.4 |  | Papp A→B | 2.91 ×10⁻⁶ cm/s
COc1cc(NC(C)=O)c2c(c1O)-c1c(OC)c(OC)cc3c1C(C2)N(C)CC3 (stereo not shown) |  | rat liver homogenate | 5 µg/mL, 24 h, room temperature, post-preparative storage |  | remaining compound | 99.4 ± 0.7%
CN1CCC(N[C@@H]2CCc3[nH]c4c(C(N)=O)ccc(-c5ccccc5Cl)c4c3C2)CC1 |  | BALB/c mice, plasma | oral, 10 mg/kg |  | AUC(0-inf) | 479 ± 144 ng·h/mL
CONC(=O)/C=C/c1cccc(S(=O)(=O)Nc2ccccc2)c1 |  | human, mild liver dysfunction, plasma | intravenous, 400 mg/m^2 belinostat, cycle 1 day -7, geometric mean | relative to: metabolite over belinostat | AUC(0-inf) metabolic ratio | 0.574
NCC(=O)N1CCC[C@H]1C(=O)N1C[C@H](O)C[C@H]1C(=O)O | potentiometric titration |  | 37 °C, MA complex, together with: Fe(III) |  | log beta | 17
Cc1nc(C)c(C=[N+]([O-])C(C)(C)C)nc1C |  | Sprague-Dawley rats both sexes, brain | oral, 45 mg/kg, 10 min |  | brain concentration | ~128 µM
C[C@@H]1O[C@@H](O[C@@H]2[C@@H](O)[C@H](O)[C@@H](CO)O[C@H]2c2c(O)cc(O)c3c(=O)cc(-c4ccc(O)cc4)oc23)[C@H](O)[C@H](O)[C@H]1O | in situ intestinal perfusion | Sprague-Dawley rat, small intestine | dose not given, 3 h |  | Papp | 0.031 to 0.093 ×10⁻⁶ cm/s
O=C([O-])CN1CCN(CC(=O)[O-])CCN(CC(=O)c2ccc(-c3ccc(OCC(=O)O)cc3)cc2)CCN(CC(=O)[O-])CC1.[Eu+3] |  | PBS |  |  | Eu3+ emission quantum yield | 0.075
CC[C@@H](C)[C@@H](NC(=O)[C@@H](C)NC(=O)[C@@H](CCCCN)NC(=O)[C@@H](CC(C)C)NC(=O)[C@@H](CC(C)C)NC(=O)[C@H](NC(=O)[C@@H](CCCCN)NC(=O)[C@@H](CC(C)C)NC(=O)[C@@H](C)NC(=O)[C@@H](CCCCN)NC(=O)[C@@H](CCCCN)NC(=O)[C@@H](CCCCN)NC(=O)[C@@H](C)NC(=O)[C@@H](CCCCN)NC(=O)[C@@H](CO)NC(=O)[C@@H](Cc1ccccc1)NC(=O)[C@H](NC(=O)[C@@H](CCCCN)NC(=O)[C@@H](CC(C)C)NC(=O)[C@@H](Cc1ccccc1)NC(=O)[C@@H](CO)NC(=O)[C@@H](CCCCN)NC(=O)[C@@H](Cc1c[nH]c2ccccc12)NC(=O)[C@@H](CCCCN)NC(C)=O)[C@H](C)O)[C@H](C)O)C(=O)N[C@H](CO)C(=O)N[C@H](CCCCN)C(N)=O | circular dichroism | 50% trifluoroethanol buffer | 5 °C | relative to: reference peptide in TFE | helical content | 96%
[11CH3]c1ccc2nc(C3CCC3)n(-c3ccc4[nH]ncc4c3)c2n1 | radio-HPLC | Sprague-Dawley rat, plasma | 30 min |  | intact parent fraction | 26%
COc1cccc([O-])c1C=NCCCN(C)CCN(C)CCCN=Cc1c([O-])cccc1OC.[67Ga+3] |  | rat | intravenous, 2 h | relative to: heart over blood | tissue uptake ratio | 37.9 ± 3.5
COc1ccc(-c2csc(N/N=C(\C)c3cc(O)cc(O)c3)n2)cc1 |  | stock and working solutions | concentration not given, 7 days, room temperature |  | deviation from initial concentration | < 10%
O=C([O-])CN1CCN(CC(=O)[O-])CCN(CC(=O)NCC2CCC(C(=O)NC(Cc3ccc4ccccc4c3)C(=O)NCCCCC(NC(=O)NC(CCC(=O)O)C(=O)O)C(=O)O)CC2)CCN(CC(=O)[O-])CC1.[44Sc+3] (stereo not shown) | PET/CT | human patients, kidney | dose not given |  | SUV | 14
COc1ccc(/N=N/c2ccc(OC[C@@H](O)CNC(C)C)cc2)cc1 | UV/Vis spectroscopy | Epac buffer with 0.5 % DMSO | 50 µM, 28 °C, together with: 365 nm light for 3 min |  | thermal half-life of cis isomer | 7.1 h
CC(C)c1cnc(-c2cc(Cl)ccc2F)cc1Nc1ccncc1C(=O)NC(CO)CO | measured: any event, worst grade | human patients | oral, dose not given, grade 2 |  | patients with related SAE | 0%
O=[N][Fe]1([N]=O)[S](CCO)[Fe]([N]=O)([N]=O)[S]1CCO | nitrate/nitrite colorimetric | simulated gastric fluid | 37 °C |  | NO released | ~2 equivalents

Excerpt of the above:
Compound | assay | system | conditions | scale | endpoint | result
CCCC[C@@H]1NC(=O)[C@@H](NC(=O)[C@H](CCC(=O)O)NC(=O)CNC(=O)CN2CCN(CC(=O)O)CCN(CC(=O)O)CCN(CC(=O)O)CC2)CCCCNC(=O)C[C@@H](C(N)=O)NC(=O)[C@H](C(C)C)NC(=O)[C@@H]2CCCN2C(=O)[C@H](CCCNC(=N)N)NC(=O)CNC(=O)[C@H](Cc2c[nH]c3ccccc23)NC(=O)[C@H](CCCNC(=N)N)NC(=O)[C@@H](Cc2ccccc2)NC(=O)[C@H](Cc2c[nH]cn2)NC(=O)[C@H](CCC(=O)O)NC1=O [gallium-67 labelled] |  | C57 mice with B16/F1 melanoma | intravenous, 0.037 MBq/mouse, 2 h | relative to: tumour over liver | tumour to liver ratio | 56.2
O=C(NCCCN(CCCCN(CCCNC(=O)c1cccc(=O)n1[O-])C(=O)c1cccc(=O)n1[O-])C(=O)c1cccc(=O)n1[O-])c1cccc(=O)n1[O-].[89Zr+4] |  | mouse, kidney | 10 min |  | tracer uptake | 9.46 %ID/g
